Results of several laboratories.
Protocols differ between the studies behind these lines. ± gives the spread as reported.
Gamma-aminobutyric acid receptor subunit alpha-2/beta-1/gamma-2: Gamma-aminobutyric acid receptor subunit alpha-2/beta-1/gamma-2 (Homo sapiens, UniProt P18505+P18507+P47869)
Sequence of UniProt P18507 (whole entry, looked up): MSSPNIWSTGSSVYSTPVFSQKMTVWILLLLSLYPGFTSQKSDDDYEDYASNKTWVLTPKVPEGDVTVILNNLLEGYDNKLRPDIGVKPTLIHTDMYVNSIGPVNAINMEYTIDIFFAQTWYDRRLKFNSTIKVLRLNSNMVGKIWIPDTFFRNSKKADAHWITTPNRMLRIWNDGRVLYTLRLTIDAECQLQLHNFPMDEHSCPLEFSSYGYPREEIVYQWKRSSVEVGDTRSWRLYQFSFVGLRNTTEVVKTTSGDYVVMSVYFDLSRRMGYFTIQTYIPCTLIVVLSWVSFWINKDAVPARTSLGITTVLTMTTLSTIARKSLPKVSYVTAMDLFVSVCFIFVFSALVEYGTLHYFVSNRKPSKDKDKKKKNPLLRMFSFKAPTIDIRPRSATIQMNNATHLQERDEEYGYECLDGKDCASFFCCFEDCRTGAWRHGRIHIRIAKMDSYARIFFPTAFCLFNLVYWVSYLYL
Sequence of UniProt P47869 (whole entry, looked up): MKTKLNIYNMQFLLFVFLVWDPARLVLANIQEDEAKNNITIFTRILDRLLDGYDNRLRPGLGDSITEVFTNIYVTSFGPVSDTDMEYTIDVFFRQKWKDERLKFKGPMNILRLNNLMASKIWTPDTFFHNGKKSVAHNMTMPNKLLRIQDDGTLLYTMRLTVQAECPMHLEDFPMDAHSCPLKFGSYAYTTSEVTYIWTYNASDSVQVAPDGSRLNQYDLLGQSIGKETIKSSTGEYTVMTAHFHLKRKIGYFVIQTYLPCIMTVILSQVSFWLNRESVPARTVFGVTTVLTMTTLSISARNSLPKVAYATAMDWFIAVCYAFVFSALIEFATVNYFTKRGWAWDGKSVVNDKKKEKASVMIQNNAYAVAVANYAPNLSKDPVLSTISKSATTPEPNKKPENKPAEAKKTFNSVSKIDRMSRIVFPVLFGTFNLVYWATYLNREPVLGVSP
Sequence of UniProt P18505 (whole entry, looked up): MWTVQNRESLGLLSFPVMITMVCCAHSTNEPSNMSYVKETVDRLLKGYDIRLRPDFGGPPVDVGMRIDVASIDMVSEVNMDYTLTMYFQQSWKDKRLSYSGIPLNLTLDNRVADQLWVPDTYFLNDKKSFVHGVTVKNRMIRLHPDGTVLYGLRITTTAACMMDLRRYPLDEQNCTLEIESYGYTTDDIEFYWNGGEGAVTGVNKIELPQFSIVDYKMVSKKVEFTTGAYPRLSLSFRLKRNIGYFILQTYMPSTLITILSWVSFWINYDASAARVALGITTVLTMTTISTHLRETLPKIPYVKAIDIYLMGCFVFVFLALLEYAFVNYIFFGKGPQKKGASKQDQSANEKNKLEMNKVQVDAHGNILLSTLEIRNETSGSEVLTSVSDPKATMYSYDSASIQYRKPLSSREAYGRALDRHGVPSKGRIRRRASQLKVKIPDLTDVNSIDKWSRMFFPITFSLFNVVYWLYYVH
TRPV1: Transient receptor potential cation channel subfamily V member 1 (TRPV1, Homo sapiens, UniProt Q8NER1)
Sequence of UniProt Q8NER1 (whole entry, looked up): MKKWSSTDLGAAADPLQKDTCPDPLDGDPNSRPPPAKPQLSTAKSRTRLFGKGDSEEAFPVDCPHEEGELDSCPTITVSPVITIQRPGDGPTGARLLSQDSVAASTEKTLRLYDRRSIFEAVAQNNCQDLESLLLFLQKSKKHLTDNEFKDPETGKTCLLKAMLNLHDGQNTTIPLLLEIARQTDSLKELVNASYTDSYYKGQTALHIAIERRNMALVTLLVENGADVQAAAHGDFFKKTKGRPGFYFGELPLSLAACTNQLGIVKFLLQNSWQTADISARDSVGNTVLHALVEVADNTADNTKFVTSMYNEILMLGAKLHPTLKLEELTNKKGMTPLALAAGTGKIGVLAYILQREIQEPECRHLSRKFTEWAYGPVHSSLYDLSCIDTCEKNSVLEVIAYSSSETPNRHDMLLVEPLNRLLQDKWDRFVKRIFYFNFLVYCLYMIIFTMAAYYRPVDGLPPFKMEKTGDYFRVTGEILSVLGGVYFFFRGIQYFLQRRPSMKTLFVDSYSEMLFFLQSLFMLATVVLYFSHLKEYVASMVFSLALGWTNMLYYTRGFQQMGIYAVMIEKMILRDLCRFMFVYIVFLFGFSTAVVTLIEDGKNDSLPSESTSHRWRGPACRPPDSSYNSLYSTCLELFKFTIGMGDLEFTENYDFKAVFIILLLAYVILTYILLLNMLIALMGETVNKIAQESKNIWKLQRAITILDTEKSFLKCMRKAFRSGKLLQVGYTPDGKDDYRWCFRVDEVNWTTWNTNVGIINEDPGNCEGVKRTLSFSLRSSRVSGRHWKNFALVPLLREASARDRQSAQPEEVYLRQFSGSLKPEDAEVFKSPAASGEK
Sequence of UniProt Q02152 (whole entry, looked up): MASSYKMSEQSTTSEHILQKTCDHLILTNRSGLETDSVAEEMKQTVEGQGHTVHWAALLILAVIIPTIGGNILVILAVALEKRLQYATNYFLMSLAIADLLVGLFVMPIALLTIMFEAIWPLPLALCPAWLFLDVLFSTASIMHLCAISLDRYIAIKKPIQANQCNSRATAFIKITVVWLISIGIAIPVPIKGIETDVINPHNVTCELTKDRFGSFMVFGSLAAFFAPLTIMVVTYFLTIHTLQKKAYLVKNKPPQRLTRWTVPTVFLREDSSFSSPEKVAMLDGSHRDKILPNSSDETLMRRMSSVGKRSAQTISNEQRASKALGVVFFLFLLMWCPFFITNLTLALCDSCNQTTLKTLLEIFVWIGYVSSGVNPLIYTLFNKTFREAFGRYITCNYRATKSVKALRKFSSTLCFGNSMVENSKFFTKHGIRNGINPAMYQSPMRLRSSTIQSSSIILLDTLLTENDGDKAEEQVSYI
Sequence of UniProt P15207 (whole entry, looked up): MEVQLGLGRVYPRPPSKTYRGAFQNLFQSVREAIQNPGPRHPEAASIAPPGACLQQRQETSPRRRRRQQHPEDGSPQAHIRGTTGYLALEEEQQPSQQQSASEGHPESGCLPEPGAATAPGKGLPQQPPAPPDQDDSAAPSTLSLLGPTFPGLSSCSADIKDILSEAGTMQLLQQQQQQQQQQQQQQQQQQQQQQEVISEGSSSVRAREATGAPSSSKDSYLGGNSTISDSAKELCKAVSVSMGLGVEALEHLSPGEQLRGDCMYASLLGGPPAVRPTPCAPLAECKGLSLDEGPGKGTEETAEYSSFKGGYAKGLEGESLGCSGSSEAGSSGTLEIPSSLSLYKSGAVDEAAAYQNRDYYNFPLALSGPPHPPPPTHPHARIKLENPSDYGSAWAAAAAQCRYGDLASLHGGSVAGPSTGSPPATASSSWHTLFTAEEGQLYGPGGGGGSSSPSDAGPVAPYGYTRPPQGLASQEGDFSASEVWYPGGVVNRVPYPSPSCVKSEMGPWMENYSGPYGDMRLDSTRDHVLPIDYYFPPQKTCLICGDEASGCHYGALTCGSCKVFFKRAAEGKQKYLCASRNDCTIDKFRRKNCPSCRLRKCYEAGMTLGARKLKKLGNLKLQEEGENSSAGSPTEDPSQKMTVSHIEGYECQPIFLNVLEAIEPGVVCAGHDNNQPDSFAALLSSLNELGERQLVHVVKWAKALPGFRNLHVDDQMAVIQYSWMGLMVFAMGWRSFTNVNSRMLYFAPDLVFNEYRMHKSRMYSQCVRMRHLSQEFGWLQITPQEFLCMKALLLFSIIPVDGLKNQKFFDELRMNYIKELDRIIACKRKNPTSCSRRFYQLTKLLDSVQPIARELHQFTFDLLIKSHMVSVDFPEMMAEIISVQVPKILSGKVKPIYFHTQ
Sequence of UniProt P15431 (whole entry, unmodified, looked up): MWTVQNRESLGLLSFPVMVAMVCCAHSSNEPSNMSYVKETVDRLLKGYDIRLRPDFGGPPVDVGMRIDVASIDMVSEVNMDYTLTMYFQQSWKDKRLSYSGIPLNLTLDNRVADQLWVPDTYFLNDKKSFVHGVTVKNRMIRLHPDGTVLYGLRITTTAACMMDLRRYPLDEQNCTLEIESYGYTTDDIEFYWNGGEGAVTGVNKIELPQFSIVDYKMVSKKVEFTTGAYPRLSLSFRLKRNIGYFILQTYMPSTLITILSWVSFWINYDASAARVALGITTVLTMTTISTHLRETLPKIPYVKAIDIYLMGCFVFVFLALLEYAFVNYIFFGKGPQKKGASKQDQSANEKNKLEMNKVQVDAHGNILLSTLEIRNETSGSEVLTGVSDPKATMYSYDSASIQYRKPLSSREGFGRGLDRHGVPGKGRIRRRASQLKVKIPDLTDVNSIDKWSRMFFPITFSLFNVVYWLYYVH
Sequence of UniProt P32300 (whole entry, looked up): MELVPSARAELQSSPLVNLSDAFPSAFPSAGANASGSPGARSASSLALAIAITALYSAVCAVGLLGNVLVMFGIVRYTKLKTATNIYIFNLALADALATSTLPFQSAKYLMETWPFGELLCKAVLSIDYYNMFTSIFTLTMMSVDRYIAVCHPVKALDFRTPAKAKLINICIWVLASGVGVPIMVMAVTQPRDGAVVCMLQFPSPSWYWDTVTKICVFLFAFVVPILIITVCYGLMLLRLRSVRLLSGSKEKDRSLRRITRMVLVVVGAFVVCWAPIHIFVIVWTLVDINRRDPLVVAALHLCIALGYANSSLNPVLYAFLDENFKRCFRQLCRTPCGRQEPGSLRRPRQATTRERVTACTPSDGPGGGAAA
Sequence of UniProt P62813 (whole entry, unmodified, looked up): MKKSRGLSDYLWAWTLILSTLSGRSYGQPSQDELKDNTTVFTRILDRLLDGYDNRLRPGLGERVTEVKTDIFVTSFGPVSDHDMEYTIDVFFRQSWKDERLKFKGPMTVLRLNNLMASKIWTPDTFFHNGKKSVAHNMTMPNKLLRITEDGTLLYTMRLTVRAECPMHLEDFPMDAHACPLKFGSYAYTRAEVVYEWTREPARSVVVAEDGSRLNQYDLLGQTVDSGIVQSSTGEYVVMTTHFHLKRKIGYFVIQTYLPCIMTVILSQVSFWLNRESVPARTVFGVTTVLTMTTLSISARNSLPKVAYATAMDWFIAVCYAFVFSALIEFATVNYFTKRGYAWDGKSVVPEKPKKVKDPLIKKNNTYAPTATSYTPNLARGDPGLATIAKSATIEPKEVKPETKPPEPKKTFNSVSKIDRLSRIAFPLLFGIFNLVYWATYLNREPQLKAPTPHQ

Compound	target or system	test	system	setting	measurement	value
C[C@]12CC[C@@H](O)C[C@@H]1CC[C@@H]1[C@@H]2CC[C@]2(C)[C@@H](C(=O)CO)CC[C@@H]12	Gabrb1/Gabrg2/Gabra1 (Rattus norvegicus, UniProt P15431+P18508+P62813, S325C)	ion current, agonist, two-electrode voltage clamp	Xenopus oocytes	first activation phase	EC50	0.73 nM
CCCCn1cc(C(=O)c2cccc3ccccc23)c2ccccc21	Cnr1 (Mus musculus, UniProt P47746)	GTPγS binding, agonist		cell membranes	EC50	276 nM
C[C@]12C=CC3=C4CCC(=O)C=C4CCC3C1CC[C@@H]2O (some centres unmarked)	Androgen receptor, ligand-binding domain (Ar, Rattus norvegicus, UniProt P15207)	reporter gene, agonist, β-lactamase reporter qHTS	Ar-bla cells		EC50	2.97 nM
CN[C@@](C)(C[18F])C(=O)O			SCID mouse SK-OV-3 xenograft, spleen	30 min, post injection	tissue uptake	13 ± 2.5 %ID/g
CCCCCCC(C)(C)c1ccc([C@@H]2C[C@H](O)CC[C@H]2CCCO)c(O)c1	Cnr2 (Rattus norvegicus, UniProt Q9QZN9)	cAMP level, agonist		together with: forskolin 10 µM	EC50	1.1 ± 0.1 nM
CC1=CC[C@@H]2[C@@H](C1)c1c(O)cc(CC#CCCCNS(C)(=O)=O)cc1OC2(C)C	Cnr1 (Rattus norvegicus, UniProt P20272)	GTPγS binding, agonist, radiometric		cell membranes	EC50	0.09 nM
C[C@@]1(O)CC[C@H]2[C@H](CC[C@@H]3[C@@H]2CC[C@]2(C)[C@@H](C(=O)Cn4cc(C#N)cn4)CC[C@@H]32)C1	Gamma-aminobutyric acid receptor subunit alpha-2/beta-1/gamma-2	GABA current potentiation, positive modulator, two-electrode voltage clamp	Xenopus laevis oocytes	30 s preincubation, together with: GABA EC10	EC50	180 ± 40 nM
C[C@H](N)Cc1cccc(C(F)(F)F)c1	5-hydroxytryptamine receptor 2B (Mus musculus, UniProt Q02152)	Gq dissociation, agonist, BRET		60 min, 37 °C	EC50	18 nM
CCCCCn1cc(C(=O)C2C(C)(C)C2(C)C)c2ccccc21	TRPV1	calcium signal, agonist, fluorescence			EC50	7900 nM
CN(C(=O)/C=C/c1ccoc1)[C@@H]1CC[C@@]2(O)[C@H]3Cc4cccc5c4[C@@]2(CCN3CC2CC2)[C@H]1O5	Oprd1 (Mus musculus, UniProt P32300)	agonist	CHO cell membranes	together with: 50 mM NaCl	EC50	334 ± 35.1 nM
CC(=O)[C@H]1CC[C@H]2[C@@H]3CC[C@H]4C[C@H](O)CC[C@]4(C)[C@H]3CC[C@]12C	Gamma-aminobutyric acid receptor subunit alpha-2/beta-1/gamma-2	GABA current potentiation, positive modulator, two-electrode voltage clamp	Xenopus laevis oocytes	30 s preincubation, together with: GABA EC10	EC50	270 ± 200 nM
CC(Cc1ccc2c(c1)OCO2)NCC(O)c1ccc(O)c(O)c1 (centres unmarked)	Beta-2 adrenergic receptor, V2R C-tail chimera (ADRB2, Homo sapiens, UniProt P07550)	agonist		concentration not given	EC50	5.01 nM
CC1(C)C(C(=O)c2cn(CCCCCF)c3ccccc23)C1(C)C	TRPV1	calcium signal, agonist, fluorescence			EC50	5300 nM
CC(=O)[C@H]1CC[C@H]2[C@@H]3CC[C@H]4C[C@](C)(O)CC[C@]4(C)[C@H]3CC[C@]12C	GABA A receptor alpha-2/beta-2/gamma-2 (Homo sapiens, UniProt P18507+P47869+P47870)	GABA current potentiation, positive modulator, two-electrode voltage clamp	Xenopus laevis oocytes	30 s preincubation, together with: GABA EC10	EC50	190 ± 70 nM

Some of these lines once more:
Compound	target or system	test	system	setting	measurement	value
CC(Cc1ccc2c(c1)OCO2)NCC(O)c1ccc(O)c(O)c1 (centres unmarked)	Beta-2 adrenergic receptor, V2R C-tail chimera (ADRB2, Homo sapiens, UniProt P07550)	agonist		concentration not given	EC50	5.01 nM
CC1(C)C(C(=O)c2cn(CCCCCF)c3ccccc23)C1(C)C	TRPV1	calcium signal, agonist, fluorescence			EC50	5300 nM
